Published values gathered from unrelated publications.
Numbered parts are unrelated; each lists some results of a single study. Several values in a cell are separate wells, animals, samples, runs or records.
Sequence of UniProt P62344 (whole entry, looked up): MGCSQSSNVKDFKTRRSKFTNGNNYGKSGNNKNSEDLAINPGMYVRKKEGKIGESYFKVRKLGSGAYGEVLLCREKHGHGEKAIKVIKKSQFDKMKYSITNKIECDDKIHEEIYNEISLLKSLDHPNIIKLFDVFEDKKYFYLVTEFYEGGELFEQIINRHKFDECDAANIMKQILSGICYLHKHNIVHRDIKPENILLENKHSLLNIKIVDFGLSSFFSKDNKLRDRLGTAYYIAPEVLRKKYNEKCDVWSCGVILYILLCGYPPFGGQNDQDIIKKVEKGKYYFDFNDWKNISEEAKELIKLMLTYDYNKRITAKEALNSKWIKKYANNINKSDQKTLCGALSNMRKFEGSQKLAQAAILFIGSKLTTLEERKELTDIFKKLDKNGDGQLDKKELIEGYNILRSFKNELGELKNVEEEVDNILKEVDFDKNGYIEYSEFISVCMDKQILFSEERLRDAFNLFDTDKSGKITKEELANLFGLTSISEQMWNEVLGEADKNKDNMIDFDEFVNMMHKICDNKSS

Sample 1
Organism: Vesicular stomatitis virus
Read-out: pseudovirus infection
Concentration: concentration not given
Setting: VSV-G control pseudotype
Relative to: vehicle
| SMILES | GFP-positive cells [%] |
| --- | --- |
| Nc1nc2[nH]cc(CCc3ccc(C(=O)N[C@@H](CCC(=O)[O-])C(=O)[O-])cc3)c2c(=O)[nH]1.Nc1nc2[nH]cc(CCc3ccc(C(=O)N[C@@H](CCC(=O)[O-])C(=O)[O-])cc3)c2c(=O)[nH]1.O.O.O.O.O.[Na+].[Na+].[Na+].[Na+] | 118 |
| Cc1nccn1CC1CCc2c(c3ccccc3n2C)C1=O.Cl (centres unmarked) | 110 |
| C[C@H]1O[C@]2(CS1)CN1CCC2CC1.C[C@H]1O[C@]2(CS1)CN1CCC2CC1.Cl.Cl.O | 99.7 |
| CCC(CC)[C@H](NC(C)=O)[C@@H]1[C@H](O)[C@@H](C(=O)O)C[C@H]1NC(=N)N.O.O.O | 95.7 |
| C=CC(=O)N1CCC[C@@H](n2nc(-c3ccc(Oc4ccccc4)cc3)c3c(N)ncnc32)C1 | 116 |
| NCC[C@H](O)C(=O)N[C@@H]1C[C@H](N)[C@@H](O[C@H]2O[C@H](CN)[C@@H](O)[C@H](O)[C@H]2O)[C@H](O)[C@H]1O[C@H]1O[C@H](CO)[C@@H](O)[C@H](N)[C@H]1O.O=S(=O)(O)O.O=S(=O)(O)O | 126 |
| CC(=O)OC(C)OC(=O)C(C)c1ccc(-c2ccccc2)c(F)c1 (centres unmarked) | 105 |

Sample 2
Organism: Sarcocystis neurona
Read-out: parasite growth
Concentration: 10 µM
| Compound | inhibition |
| --- | --- |
| Cl.Oc1cc2c(cc1O)[C@H]1c3ccccc3CN[C@@H]1CC2 | -39.2% |
| CNC1CC(c2ccc(Cl)c(Cl)c2)c2ccccc21 (centres unmarked) | 10.8% |
| C[C@]12CCC(=O)C=C1CC[C@@H]1[C@@H]2CC[C@@]2(C)[C@H]1CC[C@]2(C)O | 14.2% |
| C[C@]12CCC(=O)C[C@@H]1CC[C@@H]1[C@@H]2CC[C@@]2(C)[C@H]1CC[C@]2(C)O | 7.6% |

Sample 3
Cell line: HEK-293T-ACE2-TMPRSS2
Method: cell count
Concentration: 10 µM
| Compound | viability [%] |
| --- | --- |
| Cc1ccc(-c2cc(O)c3c(c2)CN(C(=O)Nc2ccccc2)CCO3)s1 | 102 |
| Cc1cc(C)cc(Oc2c(C)oc3c(CN4CCCCCC4)c(O)ccc3c2=O)c1 | 71 |
| Cc1nc2c(c(=O)n1C)CCN(Cc1ccc(Sc3nncn3C)o1)CC2 | 66 |
| O=C1NCCN1c1cccc(C(=O)N2CCc3c([nH]c4ccccc34)C2C2CCCCC2)c1 (centres unmarked) | 67 |
| COCCc1noc([C@@H]2CN(C3CCCC3)C[C@H]2CO)n1 | 95 |
| COc1cccc(OC)c1C(=O)Nc1cc2c(c([N+](=O)[O-])c1C)C(C)(C)CC2(C)C | 77 |
| Cc1nc(C(=O)N2CCC3(CCCN(CC4CCC4)C3=O)C2)cs1 (centres unmarked) | 113 |
| Cn1ccnc1SCc1cn2cc(Cl)ccc2n1 | 88 |
| COc1ccc(Cl)cc1NC(=O)c1cnc(N2CCN(c3ncccn3)CC2)c2ccccc12 | 77 |
| CCc1ccccc1NS(=O)(=O)c1ccc(-n2ncc(Cl)c(Cl)c2=O)cc1 | 83 |
| COc1cc(NC(=O)CN2C[C@@H](C)O[C@@H](C)C2)ccc1NC(=O)CC(C)C | 70 |
| CC(Cn1cncn1)NC(=O)c1cc(COc2cccc(F)c2)[nH]n1 (centres unmarked) | 112 |
| Cc1ccc(C)c(OCC(=O)NCc2noc(Cc3cccs3)n2)c1C | 86 |
| Cc1cc(N2CCCC(CO)C2)nc(C)n1 (centres unmarked) | 65 |
| FC(F)(F)c1ccnc(Oc2ccc(CN3CCCC3)cc2Cl)c1 | 76 |
| CC(c1ccc(-c2ccc3sc(N)nc3c2)cc1)N1CCOCC1 (centres unmarked) | 104 |
| CCOC(=O)C1(Cc2cccc(F)c2)CCN(C(=O)C2CCC2)CC1 | 111 |
| CCS(=O)(=O)c1ncc(Cl)c(C(=O)Nc2nc3ccc(F)cc3s2)n1 | 82 |
| CN(c1ccc([N+](=O)[O-])cc1S(=O)(=O)N1CCOCC1)C1CCCCC1 | 90 |

Other studies, line by line
HTR1D: 5-hydroxytryptamine receptor 1D (HTR1D, Homo sapiens, UniProt P28221)
Sequence of UniProt P28221 (whole entry, looked up): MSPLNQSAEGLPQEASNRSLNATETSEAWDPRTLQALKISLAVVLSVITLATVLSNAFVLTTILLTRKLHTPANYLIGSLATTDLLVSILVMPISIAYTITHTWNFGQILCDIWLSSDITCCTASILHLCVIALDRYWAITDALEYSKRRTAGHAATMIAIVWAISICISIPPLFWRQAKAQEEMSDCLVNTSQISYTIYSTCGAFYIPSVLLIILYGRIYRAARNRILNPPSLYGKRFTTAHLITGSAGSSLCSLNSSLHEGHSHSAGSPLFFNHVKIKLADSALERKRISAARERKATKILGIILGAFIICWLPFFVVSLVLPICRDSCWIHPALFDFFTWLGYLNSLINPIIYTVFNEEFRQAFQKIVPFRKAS
| SMILES | tested on | test | system | setting | scale | quantity | result |
| --- | --- | --- | --- | --- | --- | --- | --- |
| CCCCN(CCCC)C(=O)CN1C[C@H](c2cc(OC)c3c(c2)OCO3)[C@@H](C(=O)O)[C@@H]1CC(C)(C)CCC | Calcium-dependent protein kinase 1 (CDPK1, Plasmodium falciparum, UniProt P62344) | cell-free assay, competition with immobilised ligand |  | 1 µM |  | remaining binding | 82% |
| O=C(COc1ccccc1P(=O)(O)O)NCC(F)(F)c1ccc(F)c(F)c1 | human islet β-cells | β-cell death | human | 10 µM, 24 h, together with: 20 mM glucose + 500 µM palmitate | relative to: GFP+ cells | dead β-cells | 6% and 8.31% and 7.27% and 17.2% |
| C/C(NN1CCCCCC1)=C1\C(=O)N(c2ccccc2C)C(=O)N=C1O |  |  | human, microsomes or S9 | 2 µM, 0.5 h |  | remaining compound | 17.4% |
| N#CC1(c2ccccn2)CCN(Cc2cc(C(=O)O)c(=O)n3ccccc23)CC1 | HTR1D | cell-free assay |  | 10 µM |  | inhibition | -4.55% |
| Cc1ccc(C2CC(c3c(O)[nH]c(=O)n(C)c3=O)=NN2)s1 (centres unmarked) |  |  | human, microsomes or S9 | 2 µM, 0.5 h |  | remaining compound | 24.2% |
| O=C1CCC(N2Cc3c(ccc4c3OCC43CCN(Cc4ccccc4)CC3)C2=O)C(=O)N1 (centres unmarked) |  |  | Caco-2 | 10 µM, 2 h |  | Papp A→B | 18.7 ×10⁻⁶ cm/s |
| O=C(NCCc1ccccc1)C(Oc1ccccc1P(=O)(O)O)c1ccccc1 (centres unmarked) | human islet β-cells | β-cell death | human | 10 µM, 24 h, together with: 20 mM glucose + 500 µM palmitate | relative to: GFP+ cells | dead β-cells | 51.3% and 30.5% and 34.4% and 61.1% |
| Cc1c(N2CCNCC2)nc2ccc(Br)cc2c1C(=O)NC[C@H](CCC(=O)O)c1ccccc1Cl | HTR1D | cell-free assay |  | 10 µM |  | inhibition | 9.12% |

A few entries again (sample 3):
| Compound | viability [%] |
| --- | --- |
| Cc1nc2c(c(=O)n1C)CCN(Cc1ccc(Sc3nncn3C)o1)CC2 | 66 |
| Cc1cc(C)cc(Oc2c(C)oc3c(CN4CCCCCC4)c(O)ccc3c2=O)c1 | 71 |
| COCCc1noc([C@@H]2CN(C3CCCC3)C[C@H]2CO)n1 | 95 |
| Cc1ccc(C)c(OCC(=O)NCc2noc(Cc3cccs3)n2)c1C | 86 |
